Assay results pooled from the literature.
Compare with care: the assays were run in different laboratories. ± marks the error that the study gave.
OPG122: mRNA-decapping protein OPG122 (OPG122, Vaccinia virus, UniProt P04312)
rep papain-like protease: Replicase polyprotein 1ab, papain-like protease (rep, Middle East respiratory syndrome-related coronavirus, UniProt K9N7C7)
SCN9A: Sodium channel protein type 9 subunit alpha (SCN9A, Homo sapiens, UniProt Q15858)
bglR: Beta-glucuronidase (bglR, Clostridium perfringens, UniProt Q8XP19)
Replicase polyprotein 1a papain-like protease: Replicase polyprotein 1a, papain-like protease (Severe acute respiratory syndrome coronavirus 2, UniProt P0DTC1)

| SMILES | target | assay | test system | conditions | IC50 [µM] |
| --- | --- | --- | --- | --- | --- |
| CNc1ncnc2c1ncn2C1OC(COP(=O)(O)OP(=O)(O)OP(=O)(O)O)C(O)C1O (stereo not shown) | OPG122 | – | – | – | > 200 |
| CCC(C(=O)Nc1cccc(F)c1)n1c(SCc2ccc(F)cc2)nc2ncccc21 (stereo not shown) | rep papain-like protease | enzyme activity, inhibitor | – | – | > 100 |
| Nc1ncnc2c1ncn2C1OC(COP(=O)(O)OP(=O)(O)OP(=O)(O)O)C(O)C1O (stereo not shown) | OPG122 | – | – | – | 84 |
| O=C(/C=C/c1ccc(O)c2oc(-c3ccc(O)c(O)c3)cc12)O[C@H](Cc1ccc(O)c(O)c1)C(=O)O | Spike glycoprotein (Severe acute respiratory syndrome coronavirus 2, UniProt P0DTC2) | cell-free assay, FP | – | – | 8.9 |
| Fc1ccc(-c2ccc(/C=C/Cn3ccnc3)cc2)cc1 | cyp121 (Mycobacterium tuberculosis, UniProt P9WPP7) | substrate depletion, inhibitor, LC-MS/MS | – | with: cYY 20 µM | 21 |
| CC[C@H](C)[C@H](NC(=O)[C@H](Cc1c[nH]cn1)NC(=O)[C@H](Cc1ccc(O)cc1)NC(=O)[C@H](CCCCN)NC(=O)[C@@H]1CSSC[C@@H]2NC(=O)[C@H](CCC(=O)O)NC(=O)[C@H](CC(=O)O)NC(=O)[C@H](C)NC(=O)CNC(=O)[C@H](Cc3ccc(O)cc3)NC(=O)[C@H](CCCCN)NC(=O)[C@@H]3CSSC[C@H](NC(=O)[C@H](C(C)C)NC(=O)[C@H](Cc4ccc(O)cc4)NC(=O)CNC(=O)[C@H](CCCCN)NC(=O)[C@H](CSSC[C@H](NC(=O)[C@@H](N)CO)C(=O)N[C@@H](CCCCN)C(=O)N[C@@H](C(C)C)C(=O)N[C@@H](Cc4c[nH]c5ccccc45)C(=O)N[C@@H](Cc4ccccc4)C(=O)N[C@@H](CC(N)=O)C(=O)N[C@@H](CCC(=O)O)C(=O)N3)NC2=O)C(=O)N[C@@H](CO)C(=O)N[C@@H](CCCCN)C(=O)N[C@@H](CCCNC(=N)N)C(=O)N[C@@H](CC(=O)O)C(=O)NCC(=O)N[C@@H](Cc2c[nH]c3ccccc23)C(=O)N1)C(=O)N[C@@H](CC(N)=O)C(=O)O | SCN9A | ion current, inhibitor, patch clamp | – | – | 1.75 |
| CCC(CC)O[C@@H]1C=C(C(=O)O)C[C@H](NCc2ccc(N(C)C(C)C)cc2)[C@H]1NC(C)=O | Neuraminidase (NA, Influenza A virus, UniProt P03468) | enzyme activity, inhibitor | – | – | 0.17 |
| Nc1ncnc2c1ncn2C1CC(O)C(COP(=O)(O)OP(=O)(O)OP(=O)(O)O)O1 (stereo not shown) | OPG122 | – | – | – | 129 |
| C1CCc2c(c(N3CCNCC3)nc3sc4c(N5CCNCC5)nnnc4c23)C1 | bglR | – | – | – | 0.032 ± 0.002 |
| CSCC[C@H](NC(=O)[C@@H](NC(C)=O)C(C)C)C(=O)N1CCC[C@H]1C(=O)N[C@@H](Cc1c[nH]c2ccccc12)C(=O)N[C@@H](CC(=O)O)C(=O)N[C@@H](CCC(=O)O)C(=O)N[C@@H](Cc1c[nH]c2ccccc12)C(=O)N[C@@H](CC(C)C)C(=O)N[C@H](C(=O)N[C@@H](CCCCN)C(=O)N[C@@H](CCCNC(=N)N)C(=O)N[C@@H](CCCCN)C(=O)N1CCC[C@H]1C(=O)N[C@@H](CCC(=O)O)C(=O)N[C@@H](CC(C)C)C(=O)N1CCC[C@H]1C(N)=O)[C@@H](C)O | Polyprotein P1234, protease (Chikungunya virus, UniProt Q8JUX6) | enzyme activity, inhibitor, FRET | – | – | 4.6 |
| Cc1ccc(N2CC3CC(C2)N3C)cc1C(=O)NC1(c2ccc3c4c(cccc24)C(=O)N3C)CC1 | Replicase polyprotein 1a papain-like protease | cell-free assay | – | – | 0.0054 |
| CC[C@H](C)[C@H](NC(=O)[C@H](Cc1ccc(O)cc1)NC(=O)[C@H](Cc1c[nH]cn1)NC(=O)[C@@H]1CSSC[C@H](NC(=O)[C@@H]2CCCN2C(=O)[C@H](CCCNC(=N)N)NC(=O)[C@H](CC(C)C)NC(=O)[C@H](CC(=O)O)NC(=O)[C@@H]2CCCN2C(=O)[C@H](CCCCN)NC(=O)CNC(=O)CN)C(=O)N[C@@H](Cc2ccc(O)cc2)C(=O)N2CCC[C@H]2C(=O)N2CCC[C@H]2C(=O)N1)C(=O)N1CCC[C@H]1C(=O)N[C@@H](CCCNC(=N)N)C(=O)N1CCC[C@H]1C(=O)N[C@@H](CCCCN)C(=O)N1CCC[C@H]1C(=O)N[C@@H](CCCNC(=N)N)C(=O)O | Soluble acetylcholine receptor (Aplysia californica, UniProt Q8WSF8) | cell-free assay | – | – | 125 |
| C=Cc1c(C)c2cc3nc(cc4[nH]c(cc5nc(cc1[nH]2)C(C)=C5CCC(=O)O)c(CCC(=O)OC)c4C)C1(C)C3=CC=C(C(=O)OC)C1C(=O)OC (stereo not shown) | Spike glycoprotein, with TMPRSS2 (Severe acute respiratory syndrome coronavirus 2, UniProt P0DTC2) | inhibitor | SARS-CoV-2 | – | 14.7 |
| CC(C)C[C@@H]1NC(=O)[C@H](CCCNC(=N)N)NC(=O)[C@@H]2CCCN2C(=O)[C@@H]2CSSC[C@H](NC(=O)CNC(=O)[C@@H]3CCCN3C(=O)[C@H](CCCCN)NC(=O)[C@H](CC(=O)O)NC(=O)[C@@H](NC(=O)CN)C(C)C)C(=O)N[C@@H](CCCNC(=N)N)C(=O)N[C@@H](Cc3ccc(O)cc3)C(=O)N[C@@H](CC(C)C)C(=O)N[C@@H](Cc3ccccc3)C(=O)NCC(=O)NCC(=O)N[C@H]3CSSC[C@H](NC(=O)CNC1=O)C(=O)N[C@@H](CCCCN)C(=O)NCC(=O)N[C@@H](CCCCN)C(=O)NCC(=O)N[C@@H](Cc1c[nH]cn1)C(=O)N[C@@H](CC(=O)O)C(=O)N[C@@H](Cc1ccc(O)cc1)C(=O)N[C@H](C(=O)N[C@@H](C)C(=O)N[C@@H](Cc1c[nH]c4ccccc14)C(=O)N[C@@H](CC(=O)O)C(=O)NCC(=O)N[C@H](C(=O)N[C@@H](Cc1ccccc1)C(=O)N[C@@H](CO)C(=O)N[C@@H](CC(=O)O)C(=O)O)[C@@H](C)O)CSSC[C@H](NC(=O)[C@H](CC(=O)O)NC(=O)[C@H](CC(=O)O)NC(=O)[C@H](CC(=O)O)NC(=O)[C@H](CO)NC(=O)[C@H](CCCCN)NC3=O)C(=O)N2 | SCN5A (Homo sapiens, UniProt Q14524) | peak sodium current, inhibitor, automated patch clamp | HEK293 | holding potential -90 mV, with: 0.1 % BSA | 2.19 |
| C1CCc2c(c(N3CCOCC3)nc3sc4c(NC5CCNCC5)nnnc4c23)C1 | bglR | – | – | – | 6 ± 1 |
| Cc1ccc(N2CC(N3CCC(C)(O)CC3)C2)cc1C(=O)NC1(c2ccc3c4c(cccc24)C(=O)N3C)CC1 | Replicase polyprotein 1a papain-like protease | enzyme activity, inhibitor | – | – | 0.00846 |
| O=C(O)c1ccc(Nc2cc(Nc3ccc(C(=O)O)cc3)c3c(=O)c(Nc4ccc(C(=O)O)cc4)c(-c4ccc(Nc5ccc(C(=O)O)cc5)c(Nc5ccc(C(=O)O)cc5)c4)oc3c2)cc1 | Angiotensin-converting enzyme 2, with SARS-CoV-2 spike (ACE2, Homo sapiens, UniProt Q9BYF1) | – | – | – | 14.4 |
| CC(=O)N[C@H]1CC(=O)NCCCC[C@@H](C(N)=O)NC(=O)[C@@H](Cc2ccccc2)NC(=O)[C@@H]2CCCN2C(=O)[C@H](CC(=O)O)NC(=O)[C@H](CC(=O)O)NC(=O)[C@H](Cc2ccc(O)cc2)NC(=O)[C@H](CCC(=O)O)NC1=O | Secreted effector protein (Yersinia pestis, UniProt O68720) | – | – | – | ~100 |
| CC(C)C[C@H](NC(=O)[C@H](CC(=O)O)NC(=O)[C@H](Cc1ccc(O)cc1)NC(=O)[C@H](CCCCN)NC(=O)[C@@H]1CSSC[C@@H]2NC(=O)[C@H](CCCCN)NC(=O)[C@H](CC(=O)O)NC(=O)[C@H](CC(N)=O)NC(=O)[C@H](CO)NC(=O)[C@@H]3CCCN3C(=O)[C@H](CC(N)=O)NC(=O)[C@@H]3CSSC[C@H](NC(=O)[C@H](C(C)C)NC(=O)[C@H](CC(C)C)NC(=O)[C@H](CO)NC(=O)[C@H](CO)NC(=O)[C@H](CO)NC(=O)[C@H](CCCCN)NC(=O)[C@H](CSSC[C@H](NC(=O)[C@H](C)N)C(=O)N[C@@H](CC(C)C)C(=O)NCC(=O)N[C@@H](CCCCN)C(=O)NCC(=O)N[C@@H](CCC(=O)O)C(=O)N[C@@H](CCCCN)C(=O)N3)NC2=O)C(=O)N[C@@H](CO)C(=O)N[C@@H](CCC(N)=O)C(=O)N[C@@H](CCCCN)C(=O)N[C@@H](Cc2c[nH]cn2)C(=O)N[C@@H](CCCCN)C(=O)N[C@@H](Cc2c[nH]c3ccccc23)C(=O)N1)C(=O)O | SCN9A | ion current, inhibitor, patch clamp | – | – | > 20 |
| CC(=O)NC1C(O)C=C(C(=O)O)OC1C(O)C(O)CO (stereo not shown) | Sialidase (nanI, Clostridium perfringens, UniProt A0A0H2YQR1) | enzyme activity, inhibitor | – | – | 17 |
| CSc1ncnc2c1ncn2C1OC(COP(=O)(O)OP(=O)(O)OP(=O)(O)O)C(O)C1O (stereo not shown) | OPG122 | – | – | – | > 200 |
| CCC(C(=O)Nn1cccc1)n1c(SCc2ccc(F)cc2)nc2ncccc21 (stereo not shown) | rep papain-like protease | enzyme activity, inhibitor | – | – | > 100 |
